{"data": "Results collected from several papers", "note": "Numbered parts are unrelated; each lists some results of a single study.", "UniProt Q8TF76, sequence (whole entry, looked up)": "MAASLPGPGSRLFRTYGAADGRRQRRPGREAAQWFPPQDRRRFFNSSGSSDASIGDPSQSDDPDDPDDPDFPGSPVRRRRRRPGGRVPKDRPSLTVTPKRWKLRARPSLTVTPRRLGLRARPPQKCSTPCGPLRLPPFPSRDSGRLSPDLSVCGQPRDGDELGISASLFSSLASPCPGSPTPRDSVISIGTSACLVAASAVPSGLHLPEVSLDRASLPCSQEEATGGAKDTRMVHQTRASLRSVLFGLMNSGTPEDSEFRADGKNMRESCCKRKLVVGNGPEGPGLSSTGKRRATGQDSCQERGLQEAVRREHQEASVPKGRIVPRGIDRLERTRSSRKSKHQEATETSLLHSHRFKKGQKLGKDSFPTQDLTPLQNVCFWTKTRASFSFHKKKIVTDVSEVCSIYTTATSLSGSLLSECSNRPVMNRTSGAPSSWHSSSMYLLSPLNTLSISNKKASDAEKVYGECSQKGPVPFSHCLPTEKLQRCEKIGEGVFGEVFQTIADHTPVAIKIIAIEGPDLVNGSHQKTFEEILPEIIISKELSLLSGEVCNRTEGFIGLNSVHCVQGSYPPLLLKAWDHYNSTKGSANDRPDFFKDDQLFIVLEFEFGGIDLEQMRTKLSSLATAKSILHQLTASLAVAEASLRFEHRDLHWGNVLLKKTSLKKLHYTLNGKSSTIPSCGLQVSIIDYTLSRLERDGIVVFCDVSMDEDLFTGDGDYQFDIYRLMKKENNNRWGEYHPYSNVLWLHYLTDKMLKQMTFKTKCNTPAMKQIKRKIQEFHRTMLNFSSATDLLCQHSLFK", "UniProt P53671, sequence (whole entry, looked up)": "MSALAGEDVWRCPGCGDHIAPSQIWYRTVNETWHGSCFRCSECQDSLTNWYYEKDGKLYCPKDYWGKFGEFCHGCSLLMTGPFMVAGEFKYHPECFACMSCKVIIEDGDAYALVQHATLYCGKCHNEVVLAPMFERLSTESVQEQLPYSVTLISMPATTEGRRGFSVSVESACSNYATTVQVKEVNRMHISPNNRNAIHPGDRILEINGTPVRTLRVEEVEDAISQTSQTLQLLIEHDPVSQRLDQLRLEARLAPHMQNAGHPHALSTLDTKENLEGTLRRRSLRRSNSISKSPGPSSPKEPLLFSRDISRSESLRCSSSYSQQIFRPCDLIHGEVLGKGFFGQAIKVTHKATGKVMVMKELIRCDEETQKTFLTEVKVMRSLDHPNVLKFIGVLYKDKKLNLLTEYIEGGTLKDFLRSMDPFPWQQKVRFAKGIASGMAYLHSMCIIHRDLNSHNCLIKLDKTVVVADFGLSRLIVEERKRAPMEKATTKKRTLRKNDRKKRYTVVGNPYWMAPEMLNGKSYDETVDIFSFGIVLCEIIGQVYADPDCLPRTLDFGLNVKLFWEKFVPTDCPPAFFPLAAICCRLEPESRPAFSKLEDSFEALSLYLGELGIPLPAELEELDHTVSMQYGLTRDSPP"}
{"data": "Study 1", "target": "Homeobox protein Hox-B13, full length (HOXB13, Homo sapiens, UniProt Q92826, residues 1-284)", "technique": "protein-binding microarray", "molecule type": "hairpin DNA", "sample": "in vitro", "tested at": "not given", "setting": "whole hairpin DNA, median over replicate spots", "reference": "not given", "reading": "higher = stronger binding", "constant ends, left off below": "GAGGCCG … CGGCCTCACACTC", "UniProt Q92826, sequence (whole entry, looked up)": "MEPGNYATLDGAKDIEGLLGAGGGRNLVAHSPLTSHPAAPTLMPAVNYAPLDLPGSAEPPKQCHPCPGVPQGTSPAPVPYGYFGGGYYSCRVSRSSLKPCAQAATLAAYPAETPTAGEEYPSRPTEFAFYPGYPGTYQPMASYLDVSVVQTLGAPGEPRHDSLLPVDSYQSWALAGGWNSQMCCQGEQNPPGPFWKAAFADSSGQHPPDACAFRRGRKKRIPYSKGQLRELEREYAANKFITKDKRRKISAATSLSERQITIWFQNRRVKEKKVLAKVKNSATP"}
{"Sequence": "TTTTAGGAGGGCCTCCTGGCCCTCCTAAAA", "median fluorescence [a.u.]": 4010}
{"Sequence": "TTTTCGGAGGGCCTCCTGGCCCTCCGAAAA (5mC at 12 32)", "median fluorescence [a.u.]": 3780}
{"Sequence": "GTTTATTGGGGCCTCCTGGCCCCAATAAAC (5mC at 37)", "median fluorescence [a.u.]": 5050}
{"Sequence": "TTTTATTGGGGCCTCCTGGCCCCAATAAAA (5mC at 38)", "median fluorescence [a.u.]": 4990}
{"Sequence": "TTCGACGAGGGCCTCCTGGCCCTCGTCGAA", "median fluorescence [a.u.]": 4000}
{"Sequence": "TTCGATTGGGGCCTCCTGGCCCCAATCGAA (5mC at 34)", "median fluorescence [a.u.]": 3950}
{"Sequence": "TTTTAGGAGGGCCTCCTGGCCCTCCTAAAA (5mC at 32)", "median fluorescence [a.u.]": 4090}
{"Sequence": "TGTTATTGGGGCCTCCTGGCCCCAATAACA", "median fluorescence [a.u.]": 4380}
{"data": "Study 2", "target": "Eukaryotic initiation factor 4A-I (EIF4A1, Homo sapiens, UniProt P60842, residues 1-406, full length assumed)", "technique": "RNA Bind-n-Seq", "molecule type": "RNA", "sample": "in vitro", "tested at": "15 pmol", "setting": "4-mer, random 30-nt RNA, single round", "added": "3 µM DMDA-PatA, 2 mM AMP-PNP", "reference": "input library", "reading": "higher = stronger binding", "UniProt P60842, sequence (whole entry, looked up)": "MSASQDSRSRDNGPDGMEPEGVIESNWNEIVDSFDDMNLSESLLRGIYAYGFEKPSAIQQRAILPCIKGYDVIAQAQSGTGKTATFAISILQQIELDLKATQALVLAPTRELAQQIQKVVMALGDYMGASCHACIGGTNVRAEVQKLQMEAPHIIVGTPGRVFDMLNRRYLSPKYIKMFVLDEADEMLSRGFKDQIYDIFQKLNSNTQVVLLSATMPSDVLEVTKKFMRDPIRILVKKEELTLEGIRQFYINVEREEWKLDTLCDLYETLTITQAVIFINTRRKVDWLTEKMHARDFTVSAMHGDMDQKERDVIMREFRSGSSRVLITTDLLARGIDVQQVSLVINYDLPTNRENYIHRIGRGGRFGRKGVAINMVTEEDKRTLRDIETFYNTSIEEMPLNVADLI"}
{"Sequence": "UCUA", "4-mer enrichment": "0.997 fold"}
{"Sequence": "UCAU", "4-mer enrichment": "0.612 fold"}
{"Sequence": "GUUG", "4-mer enrichment": "1.43 fold"}
{"Sequence": "AAAU", "4-mer enrichment": "0.996 fold"}
{"Sequence": "CGAA", "4-mer enrichment": "0.969 fold"}
{"Sequence": "CGAG", "4-mer enrichment": "1.26 fold"}
{"Sequence": "GAUA", "4-mer enrichment": "1.04 fold"}
{"Sequence": "GAAG", "4-mer enrichment": "1.04 fold"}
{"data": "Mixed results"}
{"SMILES": "Nc1cnc(N2CCc3cc(S(=O)(=O)Nc4c(F)cc(Cl)cc4F)cc(N4CCCC4=O)c32)nc1", "target or system": "HASPIN (Homo sapiens, UniProt Q8TF76)", "assay": "cell-free assay, competition with immobilised ligand", "setting": "1 µM", "endpoint": "remaining binding", "result": "100%"}
{"SMILES": "CCC[C@H]1NC(=O)CSC[C@@H](C(=O)OCC)N(C)C(=O)[C@H](CC(C)C)NC(=O)[C@@H](C)N(C)C(=O)[C@H](CC(C)C)NC(=O)[C@H](C)N(C)C(=O)[C@@H]2CCCN2C(=O)[C@H](CC(C)C)NC(=O)CN(CCC)C1=O", "system": "hydrocarbon/water", "endpoint": "logD", "result": 0.656}
{"SMILES": "CCCOc1ccc([C@@H]2[C@@H](C(=O)O)[C@H](c3ccc4c(c3)OCO4)CN2CC(=O)Nc2c(CC)cccc2CC)cc1", "target or system": "LIM domain kinase 2 (LIMK2, Homo sapiens, UniProt P53671)", "assay": "cell-free assay, competition with immobilised ligand", "setting": "1 µM", "endpoint": "remaining binding", "result": "64%"}
{"SMILES": "CCOC(=O)[C@@H]1CSCC(=O)N[C@H](CC)C(=O)N(C)[C@@H](C)C(=O)N[C@H](CC(C)C)C(=O)N2CCC[C@@H]2C(=O)N(CC)CC(=O)N[C@H](CC(C)C)C(=O)N(C)[C@@H](C)C(=O)N[C@@H](CC(C)C)C(=O)N1C", "system": "hydrocarbon/water", "endpoint": "logD", "result": 0.611}
{"note": "Some of these lines once more (study 1):"}
{"Sequence": "TTTTAGGAGGGCCTCCTGGCCCTCCTAAAA", "median fluorescence [a.u.]": 4010}
{"Sequence": "TTTTCGGAGGGCCTCCTGGCCCTCCGAAAA (5mC at 12 32)", "median fluorescence [a.u.]": 3780}
